Published values gathered from unrelated publications.
Protocols differ between the studies behind these lines. Several values in a cell are separate wells, animals, samples, runs or records.
Target: Membrane-associated tyrosine- and threonine-specific cdc2-inhibitory kinase (PKMYT1, Homo sapiens, UniProt Q99640)

CN1CCN(Cc2ccc(-c3ccc(CO[C@H]4CCC[C@@H]4NC(=O)c4cc(-c5cnn(C)c5)cnc4N)cc3)cc2)CC1
inhibition (enzyme activity, inhibitor; 0.1 µM): 5%

CCN1CCN(Cc2ccc(C(=O)Nc3ccc(C)c(NCc4cnc5[nH]ccc5c4OC)c3)cc2C(F)(F)F)CC1
remaining binding (binding, competition with immobilised ligand; 1 µM): 92%

C=CC(=O)N1CCc2ccc(-n3c(=O)ccc4cnc5ccc(-c6cnn(C)c6)cc5c43)cc21
remaining binding (KINOMEscan; 1 µM; reference: DMSO control): 93%

COc1cc(Nc2nc(C)cc(-c3cnn4nc(OC)ccc34)n2)cc(C(F)(F)F)c1
remaining activity (inhibitor; 1 µM; reference: control): 97%

CNC1C[S+]2CC[S+]3CC[S+](C1)[Ru-4]321([N]=C=S)[n]2c3ccc(OC)cc3c3c4c(c5cc(F)c[n+]1c5c32)C(=O)NC4=O (stereo not drawn)
remaining binding (KinomeScan; 0.1 µM; reference: untreated): 92%

N[C@H]1CC[C@H](Nc2nccc(-c3cccnc3Oc3ccc(NC(=O)NC4CC4)c4ccccc34)n2)CC1
log2 LFQ intensity (kinobead competition pulldown; HEK293/HCT116 lysate mixture; 10 µM, 1 h, 4 °C; lower = stronger competition): 20.6 and 21.1 and 19.7 and 19.3

CNC(=O)C1CCN(c2cc(C)c(F)cc2NC(=O)c2ccc(-c3cc(O)ccc3C)c(C)c2)CC1
remaining binding (binding, competition with immobilised ligand; 1 µM): 100%

Nc1ncc2c(n1)-c1c([nH]c3ccc(C4=CCOCC4)cc13)CCC2
remaining binding (binding, competition with immobilised ligand; 1 µM): 97%

COc1c(Cl)cccc1Nc1c(-c2ccncc2C#C[C@@]2(C)CCCN2C(=O)/C=C/CN(C)C)[nH]c2c1C(=O)NCC2
remaining binding (binding, competition with immobilised ligand; 3 µM): 87%

C=CC(=O)N1Cc2nc(-c3cc(-c4cc(Cl)cnc4Cl)c(F)cc3F)n(-c3ccncn3)c2C1
inhibition (cell-free assay, inhibitor; 1 µM): -0.2%

Cc1cnc2nc1Nc1cccc(c1)COC/C=C/COCc1cc(ccc1OCCN1CCOCC1)N2
remaining signal (cell-free assay; 0.1 µM): 95%

Cc1ccc(-c2c(/C=C(\C#N)C(=O)NC(C)C)n(CCCO)c3ncnc(N)c23)cc1
remaining binding (cell-free assay, competition with immobilised ligand; 1 µM): 92%

C=CC(=O)N1CCCC(n2c(=O)c3ncccc3n(Cc3ccc(Oc4ccccc4)cc3)c2=O)C1 (stereo not drawn)
remaining binding (cell-free assay, competition with immobilised ligand; 1 µM): 94%

CC(C)=CC1OC(C)(C)C2C=C3C(=O)C(Cl)=CC(O)C3C3C(O)C4OC4C(=O)C132 (stereo not drawn)
remaining binding (cell-free assay, competition with immobilised ligand; 10 µM): 97%

COc1cc(Nc2nccc(-c3cnn4nc(OC)ccc34)n2)cc(C(F)(F)F)c1
remaining binding (binding, competition with immobilised ligand; 1 µM): 95%
